Measurements pooled from the literature.
Numbers after ± are the reported error.

CC(c1ccccn1)n1cc(-c2cc(F)cc3c(C#N)n[nH]c23)c(=O)[nH]c1=O (stereo not shown)
logD (octanol/water; pH 7.4): 2.13

NC(=O)[C@@H]1CC(F)(F)CN1C(=O)c1ccc(N2CC(F)(F)C2)c(OCC2CC2)n1
logD (pH 7.4): 2.47 ± 0.03

[2H]C([2H])([2H])C1(C([2H])([2H])[2H])NC(=O)N(c2ccc(F)c(C(F)(F)F)c2)C1=O
logD (chromatographic HPLC; pH 7.4): 2.7

CC(C)C[C@@H](NC(=O)[C@H](C)NC(=O)CNC(=O)[C@@H](NC=O)C(C)C)C(=O)N[C@@H](C)C(=O)N[C@@H](C(=O)N[C@H](C(=O)N[C@@H](C(=O)N[C@@H](Cc1c[nH]c2ccccc12)C(=O)N[C@H](CC(C)C)C(=O)N[C@@H](Cc1ccc2cc[nH]c2c1)C(=O)N[C@H](CC(C)C)C(=O)N[C@@H](Cc1c[nH]c2ccccc12)C(=O)N[C@H](CC(C)C)C(=O)N[C@@H](Cc1c[nH]c2ccccc12)C(=O)NCCO)C(C)C)C(C)C)C(C)C
logD (UHPLC retention on C18): 5.57

NCCCC1CN(c2ccc3c(n2)NC(=O)CO3)C(=O)O1 (stereo not shown)
logD (eLogD): -1.1

CS(=O)(=O)NC(=O)NCc1ccccc1
logD (pH 7.4, third measurement): -1.2

CCC(CNc1nc(-c2cn3ccnc3cc2C)nc2ccccc12)c1ccccc1 (stereo not shown)
logD: 4.1

CC(c1ccccc1)n1cc(-c2cccc3cn[nH]c23)c(=O)[nH]c1=O (stereo not shown)
logD (octanol/water; pH 7.4): 2.37

CN1C(=O)Cc2ccc(F)c(CCNC[C@H]3CN(c4ccc5c(n4)NC(=O)CO5)C(=O)O3)c21
logD (eLogD): 1.65

COc1ccc2c3c1O[C@H]1C(=O)C=C[C@@]4(O)[C@@H](C2)N(C)CC[C@]314
logD (octanol/buffer; 1 h, pH 7.4): -0.06

O=C(O)CCc1ccccc1
logD (pH 7.4, second measurement): -0.51

CCOC(=O)C(CCCOC)NC(=O)c1ccc(C2CC2)c(Cc2ccc(F)cc2)n1 (stereo not shown)
logD: 3.3

FC(F)(F)[C@@]1(c2ccccc2)COC[C@@H](c2cccnc2)N1
logD (shake-flask, 1-octanol/buffer; pH 7.4): > 4.7

CC(C)C[C@@H](NC(=O)[C@H](C)NC(=O)CNC(=O)[C@@H](NC=O)C(C)C)C(=O)N[C@@H](C)C(=O)N[C@@H](C(=O)N[C@H](C(=O)N[C@@H](C(=O)N[C@@H](Cc1c[nH]c2ccccc12)C(=O)N[C@H](CC(C)C)C(=O)N[C@@H](Cc1ccc2[nH]ccc2c1)C(=O)N[C@H](CC(C)C)C(=O)N[C@@H](Cc1c[nH]c2ccccc12)C(=O)N[C@@H](C(=O)N[C@@H](Cc1c[nH]c2ccccc12)C(=O)NCCO)C(C)C)[C@H](C)O)C(C)C)C(C)C
logD (UHPLC retention on C18): 4.02

O=C1NC(=O)C(Cc2ccccc2)S1 (stereo not shown)
logD (pH 7.4, third measurement): 1.09

COc1ccc2c3c1O[C@H]1[C@@H](O)C=C[C@@]4(O)[C@@H](C2)N(C)CC[C@]314
logD (octanol/buffer; 1 h, pH 7.4): -0.86

A few entries again:
CCOC(=O)C(CCCOC)NC(=O)c1ccc(C2CC2)c(Cc2ccc(F)cc2)n1 (stereo not shown)
logD: 3.3
